Published values pooled from the literature.
Lines come from different studies, so protocols differ. Values joined by “and” are separate records of one study, mostly repeats; a detail may differ. ± marks the error that the study gave.

| Compound | test | system | conditions | how to read | endpoint | value |
| --- | --- | --- | --- | --- | --- | --- |
| CC[C@H](C)[C@H](NC(=O)[C@H](CCCCN)NC(=O)CNC(=O)[C@H](CC(C)C)NC(=O)[C@H](Cc1ccccc1)NC(=O)[C@H](CCCCN)NC(=O)[C@H](CO)NC(=O)[C@H](Cc1ccccc1)NC(=O)[C@H](Cc1c[nH]c2ccccc12)NC(=O)[C@H](CCC(N)=O)NC(=O)[C@@H](NC(=O)[C@H](Cc1ccccc1)NC(=O)CCCCCNC(=O)CN1CCN(CC(=O)O)CCN(CC(=O)O)CCN(CC(=O)O)CC1)C(C)C)C(=O)N[C@@H](CCC(=O)O)C(=O)N1CCC[C@H]1C(=O)N[C@@H](CC(=O)O)C(=O)N[C@H](C(=O)N[C@@H](CO)C(=O)N[C@@H](CCC(N)=O)C(=O)N[C@H](C(=O)N[C@@H](CCC(N)=O)C(=O)N[C@@H](CC(=O)O)C(=O)N1CCC[C@H]1C(=O)N[C@@H](CC(N)=O)C(=O)N[C@@H](CC(=O)O)C(=O)N[C@@H](CCC(N)=O)C(=O)N[C@@H](Cc1ccc(O)cc1)C(=O)N[C@@H](CCC(=O)O)C(=O)N1CCC[C@H]1C(=O)N[C@@H](Cc1ccccc1)C(=O)O)C(C)C)C(C)C [copper-64 labelled] | – | C57BL/6 male mouse, tumour-naive, thymus | 24 h | – | tissue uptake | 2.67 ± 0.4 %ID/g |
| CSCC[C@H](NC(=O)CNC(=O)[C@H](CCCCN)NC(=O)[C@H](CC(C)C)NC(=O)[C@@H]1CCCN1C(=O)[C@H](CO)NC(=O)[C@H](Cc1c[nH]cn1)NC(=O)[C@H](Cc1c[nH]c2ccccc12)NC(=O)[C@H](CCCNC(=N)N)NC(=O)[C@H](CC(C)C)NC(=O)[C@H](CCCNC(=N)N)NC(=O)[C@H](Cc1c[nH]c2ccccc12)NC(=O)[C@H](CS)NC(=O)CCCCCNC(=O)CN1CCN(CC(=O)O)CCN(CC(=O)O)CCN(CC(=O)O)CC1)C(=O)O [copper-64 labelled] | – | BALB/c nude mouse, Huh-7 tumour, lymph node | intravenous, 6 h, ex vivo biodistribution | – | tissue uptake | 2.43 %ID/g |
| CC[C@H](C)[C@H](NC(=O)[C@H](CCCNC(=N)N)NC(=O)[C@H](CCCCN)NC(=O)[C@H](Cc1ccc(O)cc1)NC(=O)[C@H](CC(=O)O)NC(=O)[C@H](C)NC(=O)CNC(=O)CCOCCOCCOCCNC(=O)CN1CCN(CC(=O)O)CCN(CC(=O)O)CCN(CC(=O)O)CC1)C(=O)N[C@H](C(=O)N[C@@H](CC(C)C)C(=O)N[C@@H](CCCCN)C(=O)N[C@H](C(=O)N[C@@H](CC(N)=O)C(N)=O)C(C)C)[C@@H](C)O [copper-64 labelled] | – | C57BL/6J mouse male, B16-F10 tumour, small intestine | intravenous, 1.85 MBq, 40 min, 67Ga complex | – | tissue uptake | 1.73 ± 0.687 %ID/g |
| CSCC[C@H](N)C(=O)N[C@@H](C)C(=O)N[C@@H](Cc1c[nH]c2ccccc12)C(=O)N[C@@H](Cc1c[nH]cn1)C(=O)N[C@@H](CC(=O)O)C(=O)N[C@@H](CC(=O)O)C(=O)N[C@@H](CCC(=O)O)C(=O)N[C@@H](CCC(=O)O)C(=O)N[C@@H](Cc1ccccc1)C(=O)N[C@@H](C)C(=O)N[C@@H](CCCNC(=N)N)C(=O)N[C@@H](CCCNC(=N)N)C(=O)N[C@@H](CCCNC(=N)N)C(=O)N[C@@H](CCCNC(=N)N)C(=O)NCCCCCC(=O)NCCCCC(NC(=O)CCCCCNC(=O)[C@H](CCCNC(=N)N)NC(=O)[C@H](CCCNC(=N)N)NC(=O)[C@H](CCCNC(=N)N)NC(=O)[C@H](CCCNC(=N)N)NC(=O)[C@H](C)NC(=O)[C@H](Cc1ccccc1)NC(=O)[C@H](CCC(=O)O)NC(=O)[C@H](CCC(=O)O)NC(=O)[C@H](CC(=O)O)NC(=O)[C@H](CC(=O)O)NC(=O)[C@H](Cc1c[nH]cn1)NC(=O)[C@H](Cc1c[nH]c2ccccc12)NC(=O)[C@H](C)NC(=O)[C@@H](N)CCSC)C(=O)NCCCCC(NC(=O)C(CCCCNC(=O)CCCCCNC(=O)[C@H](CCCNC(=N)N)NC(=O)[C@H](CCCNC(=N)N)NC(=O)[C@H](CCCNC(=N)N)NC(=O)[C@H](CCCNC(=N)N)NC(=O)[C@H](C)NC(=O)[C@H](Cc1ccccc1)NC(=O)[C@H](CCC(=O)O)NC(=O)[C@H](CCC(=O)O)NC(=O)[C@H](CC(=O)O)NC(=O)[C@H](CC(=O)O)NC(=O)[C@H](Cc1c[nH]cn1)NC(=O)[C@H](Cc1c[nH]c2ccccc12)NC(=O)[C@H](C)NC(=O)[C@@H](N)CCSC)NC(=O)CCCCCNC(=O)[C@H](CCCNC(=N)N)NC(=O)[C@H](CCCNC(=N)N)NC(=O)[C@H](CCCNC(=N)N)NC(=O)[C@H](CCCNC(=N)N)NC(=O)[C@H](C)NC(=O)[C@H](Cc1ccccc1)NC(=O)[C@H](CCC(=O)O)NC(=O)[C@H](CCC(=O)O)NC(=O)[C@H](CC(=O)O)NC(=O)[C@H](CC(=O)O)NC(=O)[C@H](Cc1c[nH]cn1)NC(=O)[C@H](Cc1c[nH]c2ccccc12)NC(=O)[C@H](C)NC(=O)[C@@H](N)CCSC)C(N)=O (some centres unmarked) | – | C57BL/6 mouse female, brain | dose not given, 6 h | baseline: total | tissue distribution | 0.47% and 1.01% |
| CC(C)C[C@@H](NC(=O)[C@@H](CCCCN)NC(=O)CNC(=O)CNC(=O)[C@@H]1CSSC[C@H](N)C(=O)NCC(=O)N[C@@H](CCCNC(=N)N)C(=O)N[C@@H](CCCNC(=N)N)C(=O)N[C@@H](C)C(=O)NCC(=O)NCC(=O)N[C@@H](CO)C(=O)N1)C(=O)N[C@H](C)C(=O)N[C@H](CCCCN)C(=O)N[C@H](CC(C)C)C(=O)N[C@H](C)C(=O)N[C@H](CCCCN)C(=O)N[C@H](CCCCN)C(=O)N[C@H](CC(C)C)C(=O)N[C@H](C)C(=O)N[C@H](CCCCN)C(=O)N[C@H](CC(C)C)C(=O)N[C@H](C)C(=O)N[C@H](CCCCN)C(=O)O | immunohistochemistry | mouse, brain and liver | 10 mg/kg, 20 min | – | tissue detection | not detected |
| CSCC[C@H](N)C(=O)N[C@@H](C)C(=O)N[C@@H](CCCNC(=N)N)C(=O)N[C@@H](CCCNC(=N)N)C(=O)N[C@@H](CC(=O)O)C(=O)N[C@@H](CCCCN)C(=O)N[C@H](C(=O)N[C@@H](CC(=O)O)C(=O)N[C@@H](Cc1ccccc1)C(=O)N[C@@H](C)C(=O)N[C@@H](CCCNC(=N)N)C(=O)N[C@@H](CCCNC(=N)N)C(=O)N[C@@H](CCCNC(=N)N)C(=O)N[C@@H](CCCNC(=N)N)C(=O)NCCCCCC(=O)NCCCCC(NC(=O)CCCCCNC(=O)[C@H](CCCNC(=N)N)NC(=O)[C@H](CCCNC(=N)N)NC(=O)[C@H](CCCNC(=N)N)NC(=O)[C@H](CCCNC(=N)N)NC(=O)[C@H](C)NC(=O)[C@H](Cc1ccccc1)NC(=O)[C@H](CC(=O)O)NC(=O)[C@@H](NC(=O)[C@H](CCCCN)NC(=O)[C@H](CC(=O)O)NC(=O)[C@H](CCCNC(=N)N)NC(=O)[C@H](CCCNC(=N)N)NC(=O)[C@H](C)NC(=O)[C@@H](N)CCSC)[C@@H](C)O)C(=O)NCCCCC(NC(=O)C(CCCCNC(=O)CCCCCNC(=O)[C@H](CCCNC(=N)N)NC(=O)[C@H](CCCNC(=N)N)NC(=O)[C@H](CCCNC(=N)N)NC(=O)[C@H](CCCNC(=N)N)NC(=O)[C@H](C)NC(=O)[C@H](Cc1ccccc1)NC(=O)[C@H](CC(=O)O)NC(=O)[C@@H](NC(=O)[C@H](CCCCN)NC(=O)[C@H](CC(=O)O)NC(=O)[C@H](CCCNC(=N)N)NC(=O)[C@H](CCCNC(=N)N)NC(=O)[C@H](C)NC(=O)[C@@H](N)CCSC)[C@@H](C)O)NC(=O)CCCCCNC(=O)[C@H](CCCNC(=N)N)NC(=O)[C@H](CCCNC(=N)N)NC(=O)[C@H](CCCNC(=N)N)NC(=O)[C@H](CCCNC(=N)N)NC(=O)[C@H](C)NC(=O)[C@H](Cc1ccccc1)NC(=O)[C@H](CC(=O)O)NC(=O)[C@@H](NC(=O)[C@H](CCCCN)NC(=O)[C@H](CC(=O)O)NC(=O)[C@H](CCCNC(=N)N)NC(=O)[C@H](CCCNC(=N)N)NC(=O)[C@H](C)NC(=O)[C@@H](N)CCSC)[C@@H](C)O)C(N)=O)[C@@H](C)O (some centres unmarked) | – | C57BL/6 mouse female, spine | dose not given, 6 h | baseline: total | tissue distribution | 4.05% |
| CN1Cc2cc(Cl)ccc2-n2c(nnc2C2CCN(c3cccc([18F])n3)CC2)C1 | – | C57BL/6 mouse male, stomach | intravenous, 3.7 MBq, 30 min | – | tissue uptake | 14.4 ± 4.55 %ID/g |
| CC[C@H](C)[C@H](NC(=O)[C@H](CCCNC(=N)N)NC(=O)[C@H](CCCCN)NC(=O)[C@H](Cc1ccc(O)cc1)NC(=O)[C@H](CC(=O)O)NC(=O)[C@H](C)NC(=O)CNC(=O)CCOCCOCCOCCNC(=O)CN1CCN(CC(=O)O)CCN(CC(=O)O)CCN(CC(=O)O)CC1)C(=O)N[C@H](C(=O)N[C@H](C(=O)N[C@@H](CCCCN)C(=O)N[C@H](C(=O)N[C@@H](CC(N)=O)C(N)=O)C(C)C)C(C)C)[C@@H](C)O [copper-64 labelled] | ex vivo gamma counting | male C57BL/6J mouse, B16-F10 tumour, B16-F10 tumour | intravenous, 1.85 MBq, 5 min | – | tissue uptake | 3.37 ± 0.867 %ID/g |

For quick reference, copied from above:
| Compound | test | system | conditions | how to read | endpoint | value |
| --- | --- | --- | --- | --- | --- | --- |
| CC[C@H](C)[C@H](NC(=O)[C@H](CCCNC(=N)N)NC(=O)[C@H](CCCCN)NC(=O)[C@H](Cc1ccc(O)cc1)NC(=O)[C@H](CC(=O)O)NC(=O)[C@H](C)NC(=O)CNC(=O)CCOCCOCCOCCNC(=O)CN1CCN(CC(=O)O)CCN(CC(=O)O)CCN(CC(=O)O)CC1)C(=O)N[C@H](C(=O)N[C@@H](CC(C)C)C(=O)N[C@@H](CCCCN)C(=O)N[C@H](C(=O)N[C@@H](CC(N)=O)C(N)=O)C(C)C)[C@@H](C)O [copper-64 labelled] | – | C57BL/6J mouse male, B16-F10 tumour, small intestine | intravenous, 1.85 MBq, 40 min, 67Ga complex | – | tissue uptake | 1.73 ± 0.687 %ID/g |
